# Measured values from different studies.
# Lines come from different studies, so protocols differ. Several values in a cell are separate wells, animals, samples, runs or records. ± gives the spread as reported.
SMILES,tested on,assay,system,setting,how to read,quantity,result
C=CCN1C(=O)C(CC=C)(C(=O)OCC)Oc2cc(F)ccc21 (stereo not shown),HaCaT,"cell growth or viability, CCK-8",,"12.5 µM, 72 h",,inhibition,0.35%
Cc1ccc(NS(=O)(=O)c2c(C(=O)N3CCCCCC3)c(C)n(C)c2C)c(Cl)c1,Fowlpox virus,viral infection,CEF,0.015 µM,relative to: untreated,infection,95.4% and 106% and 81.1%
Cc1cc(Oc2nc(N3CC[C@@H](c4ccncc4)C3)ncc2F)[nH]n1,Mycobacterium tuberculosis,OD,H37Rv PurF CRISPRi knockdown,"0.007813 µM, together with: anhydrotetracycline low",,normalised growth,44% and 40% and 39%
CC(C)C[C@@H]1NC(=O)[C@@H](Cc2c[nH]c3ccccc23)NC(=O)[C@H](CCCNC(=N)N)NC(=O)[C@@H](CCC(=O)O)NC(=O)[C@H](CCC(N)=O)NC(=O)[C@@H](CCC(=O)O)NC(=O)[C@H](CCCNC(=N)N)NC(=O)[C@@H](Cc2c[nH]c3ccccc23)NC1=O,,item: IL6,"LDLr-/- mouse on Western diet, liver","dose not given, 4 weeks",,cytokine level,260 ± 55 pg/g tissue
CC(C)CC(C(=O)N1CC2(CC1C#N)C(=O)Nc1ccccc12)N(C)C(=O)c1cc2c(F)cc(F)c(F)c2[nH]1 (stereo not shown),Betacoronavirus 1,viral replication,"HCT-8, OC43",1 µM,,inhibition,99.4%
Cc1ccc(N2CC3CC(C2)N3C)cc1C(=O)NC1(c2ccc3c4c(cccc24)C(=O)N3C)CC1,pigeon-PLpro,"enzyme activity, inhibitor",,100 µM,,inhibition,35.5% and 40.5%
COc1ccccc1-c1n[nH]c2nc(NC3CCN(C(=O)Cc4ccc(F)cc4F)CC3)ncc12,,"bead binding, competition bead pull-down, item: LMJF.22.1450",Leishmania donovani axenic amastigote extract,10 µM,relative to: vehicle,relative abundance,0.96
Cc1cc(C(=O)Nc2nc3cccc(C)c3n2[C@H]2CCCCN(C(=O)/C=C/CN(C)C)C2)ccn1,Trypanosoma brucei,propidium iodide flow cytometry,bloodstream form,"concentration not given, 48 h",,multinucleated cells,8.62%
COc1ccccc1-c1n[nH]c2nc(N[C@H]3CC[C@H](NS(=O)(=O)CC(C)C)CC3)ncc12,,"bead binding, competition bead pull-down, item: LINJ.30.1580",Leishmania donovani extract,10 µM,relative to: vehicle,relative abundance,0.11
CC(C)(C)C(=O)OCOP(=O)(OCOC(=O)C(C)(C)C)C1CCCN(O)C1=O (stereo not shown),NCI-H226,,,,,TGI,9.62 µM

# Some of these lines once more:
SMILES,tested on,assay,system,setting,how to read,quantity,result
Cc1cc(C(=O)Nc2nc3cccc(C)c3n2[C@H]2CCCCN(C(=O)/C=C/CN(C)C)C2)ccn1,Trypanosoma brucei,propidium iodide flow cytometry,bloodstream form,"concentration not given, 48 h",,multinucleated cells,8.62%
